Experimental data gathered from unrelated publications.
Lines come from different studies, so protocols differ. ± marks the error that the study gave.

Compound	target or system	assay	system	conditions	how to read	endpoint	result
C[C@H]1CN(N=O)CCc2ccc(Cl)cc21	Salmonella typhimurium, Escherichia coli	preincubation Ames test		concentration not given, with and without S9		mutagenicity	positive
Cc1cccc2c1ccc1cc(C(C)C)ccc12	Danio rerio	severe developmental teratogenicity	embryo medium	pH 7.2, 50% embryos affected DMSO 1%		teratogenic concentration	16.5 µM
NC(=O)N1c2ccccc2C=Cc2ccccc21	Danio rerio		zebrafish, male	waterborne exposure, 1 µg/L nominal, 7 d		plasma concentration	0.0255 µg/mL
CN[C@@](C)(C[18F])C(=O)O			SCID mouse A549 xenograft, kidney	15 min, post injection		tissue uptake	31 ± 3.8 %ID/g
CN(C)N=O	Salmonella typhimurium, Escherichia coli	preincubation Ames test		concentration not given, with and without S9		mutagenicity	positive
Cc1c[nH]c2ccccc12	Salmonella typhimurium		TA98	48 (unit not given), together with: human lung microsomes 0.5 mg + NADPH	baseline: DMSO	lowest mutagenic concentration	0.1 µM
C[C@H]1[C@@H](O)O[C@@H]2O[C@@]3(C)CC[C@H]4[C@H](C)CC[C@@H]1[C@@]24OO3	Plasmodium falciparum		Vero, 3D7 chloroquine-sensitive		baseline: CC50 Vero over IC50 parasite	selectivity ratio	5500
O=NN1CC2CC(C1)c1cc3nccnc3cc12	Salmonella typhimurium, Escherichia coli	preincubation Ames test		concentration not given, with and without S9		mutagenicity	positive
CC[C@H](C)[C@@H](CC(=O)N[C@@H](CCC(=O)O)CC(=O)O)NC(=O)C[C@@H](NC(=O)C[C@H](CCCN)NC(=O)C[C@H](Cc1cccc(C(F)(F)F)c1)NC(=O)C[C@@H](NC(=O)C[C@H](CCC(=O)O)NC(=O)C[C@H](Cc1c[nH]c2ccccc12)NC(=O)C[C@@H](NC(=O)C[C@@H](N)CCCN)C(C)C)C(C)C)C(C)C	HIV-1	MTT	MT2, IIIB	5 days	baseline: CC50 over EC50	selectivity index	8
CC[C@H](C)[C@H](NC(=O)[C@H](Cc1c[nH]c2ccccc12)NC(=O)[C@H](CCC(=O)O)NC(=O)[C@H](CCCCN)NC(=O)[C@@H](NC(=O)[C@H](CCCCN)NC(=O)[C@@H](N)CC(N)=O)C(C)C)C(=O)N[C@@H](CCCCN)C(=O)N[C@@H](Cc1ccc(O)cc1)C(=O)N[C@@H](CC(C)C)C(=O)N[C@@H](CCCCN)C(=O)N[C@@H](CO)C(=O)N[C@@H](CC(C)C)C(=O)N[C@@H](Cc1ccccc1)C(=O)N[C@@H](CO)C(=O)N[C@H]1CCOC1=O	Staphylococcus aureus		ATCC 25923, resting cell suspension	200 µg/mL, 1 h, pH 7.0, 37 °C		remaining peptide	89.2%
Nc1ncnc2c([C@@H]3N[C@H](CO)[C@@H](O)[C@H]3O)c[nH]c12	Zika virus		Vero 76, PRVABC59	unit not given	baseline: CC over EC90	SI90	5.5
c1ccc(-c2ccccc2-c2ccccc2)cc1	Cyprinus carpio	everted gut sac	intestine	concentration not given, 24 h, 23 °C		concentration in serosal solution	305 ± 120 µg/mL
O=C(NCCN1CCCC1)c1cc(-c2ccc(CN3CCOCC3)cc2)nc2ccc(F)cc12	Plasmodium falciparum		human, whole blood	oral, 400 mg, malaria volunteer infection study		AUC(0-t)	9470 ng·h/mL
CCOC(CN(CC(OCC)OCC)N=O)OCC	Salmonella typhimurium, Escherichia coli	preincubation Ames test		concentration not given, with and without S9		mutagenicity	positive
O=[N+]([O-])c1ccc(Oc2ccc(Cl)cc2Cl)cc1	Cyprinus carpio	everted gut sac	intestine	concentration not given, 24 h, 23 °C		concentration in serosal solution	303 ± 134 µg/mL
